Measurements of several laboratories.
Parts stem from different laboratories: compare values within a part only. Substitutions count along the parent as printed.

Study 1
Target: UDP-N-acetylglucosamine--peptide N-acetylglucosaminyltransferase 110 kDa subunit (OGT, Homo sapiens, UniProt O15294)
Effect on: binding
Method: phage display NGS
Form: peptide
Concentration: concentration not given
Setting: panning round 2
Relative to: input library
Target sequence (O15294 1-1046): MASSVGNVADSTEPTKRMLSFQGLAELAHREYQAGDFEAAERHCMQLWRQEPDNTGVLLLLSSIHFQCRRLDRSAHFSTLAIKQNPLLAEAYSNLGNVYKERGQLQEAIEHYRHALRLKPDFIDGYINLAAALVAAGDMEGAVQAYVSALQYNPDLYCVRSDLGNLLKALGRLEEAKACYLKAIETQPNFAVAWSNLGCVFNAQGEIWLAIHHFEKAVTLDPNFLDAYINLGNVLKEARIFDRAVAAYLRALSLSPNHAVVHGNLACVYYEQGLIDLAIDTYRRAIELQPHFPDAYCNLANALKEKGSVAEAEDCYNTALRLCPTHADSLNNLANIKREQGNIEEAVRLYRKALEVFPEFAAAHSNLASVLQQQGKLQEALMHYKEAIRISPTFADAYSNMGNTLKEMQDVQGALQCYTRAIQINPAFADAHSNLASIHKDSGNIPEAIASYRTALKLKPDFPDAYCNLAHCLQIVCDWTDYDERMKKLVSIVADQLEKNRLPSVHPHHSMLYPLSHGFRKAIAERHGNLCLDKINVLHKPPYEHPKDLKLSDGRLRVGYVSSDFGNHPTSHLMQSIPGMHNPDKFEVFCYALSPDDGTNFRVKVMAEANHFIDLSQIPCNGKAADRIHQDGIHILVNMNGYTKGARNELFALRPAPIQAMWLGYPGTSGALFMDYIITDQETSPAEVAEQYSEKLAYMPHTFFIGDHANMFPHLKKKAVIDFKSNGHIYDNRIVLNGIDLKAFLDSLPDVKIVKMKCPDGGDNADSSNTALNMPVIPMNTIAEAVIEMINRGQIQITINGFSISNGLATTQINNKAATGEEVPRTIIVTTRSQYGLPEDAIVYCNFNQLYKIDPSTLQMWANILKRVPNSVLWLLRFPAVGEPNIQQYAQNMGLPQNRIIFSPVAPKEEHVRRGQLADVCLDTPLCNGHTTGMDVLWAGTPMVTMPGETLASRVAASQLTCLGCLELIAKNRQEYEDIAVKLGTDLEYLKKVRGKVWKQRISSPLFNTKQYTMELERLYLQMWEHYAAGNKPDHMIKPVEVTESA
For `HMFTNQHHFRPMHQA`, “enrichment fold change” read 10.8.
Under “enrichment fold change”, `DGQFKPVYMIDYGV` is recorded as 7.82.
`DPRHHTHYPIHTMGY`: “enrichment fold change” 6.3.
`QFLPSYQIQVDLPHY`: “enrichment fold change” 7.06.
For `SFVVPRYQIIYKPFQ`, “enrichment fold change” read 5.56.
`HVPEGHHYLGHVHFL`: “enrichment fold change” 4.46.
Under “enrichment fold change”, `EEVPSQYAPYYEITY` is recorded as 3.27.

Study 2
Target: tungstate, free oxyanion
Method: microfluidic competitive inhibition
Matrix: in vitro, cell-free expressed
Concentration: not given
Setting: derived from inhibition constants, unchanged parent 2230 nM
Reading: lower = stronger binding
Starting sequence: PafA, mature enzyme, eGFP fusion (Elizabethkingia meningoseptica, UniProt Q9KJX5); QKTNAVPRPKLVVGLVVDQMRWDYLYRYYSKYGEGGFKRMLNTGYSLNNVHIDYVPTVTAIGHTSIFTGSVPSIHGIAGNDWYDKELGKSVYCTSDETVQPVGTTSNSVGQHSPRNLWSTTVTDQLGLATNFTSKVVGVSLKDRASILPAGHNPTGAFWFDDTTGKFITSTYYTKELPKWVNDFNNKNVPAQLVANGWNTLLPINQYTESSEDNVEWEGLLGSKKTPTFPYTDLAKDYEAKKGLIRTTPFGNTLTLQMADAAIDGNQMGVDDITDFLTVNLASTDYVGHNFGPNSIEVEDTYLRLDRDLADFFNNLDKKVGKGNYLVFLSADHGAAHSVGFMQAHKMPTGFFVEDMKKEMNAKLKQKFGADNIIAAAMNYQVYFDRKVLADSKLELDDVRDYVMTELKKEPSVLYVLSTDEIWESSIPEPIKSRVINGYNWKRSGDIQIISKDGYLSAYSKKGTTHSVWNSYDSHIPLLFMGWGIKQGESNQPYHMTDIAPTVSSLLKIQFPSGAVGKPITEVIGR
Under “oxyanion analog dissociation constant”, `H495G` is recorded as 1.59 µM.
`V139G`: “oxyanion analog dissociation constant” 1.93 µM.
`S295V`: “oxyanion analog dissociation constant” > 827 µM.
For `D161G`, “oxyanion analog dissociation constant” read 2.75 µM.
Under “oxyanion analog dissociation constant”, `E239G` is recorded as 1.72 µM.

Study 3
Target: Sal-like protein 4, full length isoform A (SALL4, Homo sapiens, UniProt Q9UJQ4, residues 1-1053)
Chain of UniProt Q9UJQ4 (whole entry, looked up): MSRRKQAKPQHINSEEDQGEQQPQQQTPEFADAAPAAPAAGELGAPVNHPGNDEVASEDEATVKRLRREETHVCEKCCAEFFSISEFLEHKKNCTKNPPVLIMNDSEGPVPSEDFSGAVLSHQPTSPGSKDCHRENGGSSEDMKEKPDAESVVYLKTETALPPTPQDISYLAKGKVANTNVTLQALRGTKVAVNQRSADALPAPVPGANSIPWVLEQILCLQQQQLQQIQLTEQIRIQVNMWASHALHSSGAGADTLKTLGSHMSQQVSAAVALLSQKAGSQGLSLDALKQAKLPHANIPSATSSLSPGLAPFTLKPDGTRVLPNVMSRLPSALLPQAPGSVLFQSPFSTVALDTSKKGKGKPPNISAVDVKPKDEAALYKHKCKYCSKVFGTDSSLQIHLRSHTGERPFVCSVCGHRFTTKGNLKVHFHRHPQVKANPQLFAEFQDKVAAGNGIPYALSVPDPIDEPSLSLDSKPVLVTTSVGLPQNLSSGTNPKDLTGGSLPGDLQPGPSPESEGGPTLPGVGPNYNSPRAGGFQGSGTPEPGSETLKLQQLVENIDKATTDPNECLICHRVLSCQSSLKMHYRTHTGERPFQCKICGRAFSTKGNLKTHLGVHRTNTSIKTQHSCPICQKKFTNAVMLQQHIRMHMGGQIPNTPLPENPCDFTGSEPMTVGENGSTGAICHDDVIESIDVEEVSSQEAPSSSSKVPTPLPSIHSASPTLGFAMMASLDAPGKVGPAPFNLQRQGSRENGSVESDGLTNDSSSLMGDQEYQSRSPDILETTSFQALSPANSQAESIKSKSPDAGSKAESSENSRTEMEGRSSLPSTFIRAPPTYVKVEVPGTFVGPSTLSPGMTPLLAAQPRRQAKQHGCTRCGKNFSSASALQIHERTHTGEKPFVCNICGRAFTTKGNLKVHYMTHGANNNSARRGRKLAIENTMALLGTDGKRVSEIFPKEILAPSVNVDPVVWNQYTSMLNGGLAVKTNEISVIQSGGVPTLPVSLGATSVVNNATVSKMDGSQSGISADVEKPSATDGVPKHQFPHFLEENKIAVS
Method: universal PBM
Form: double-stranded DNA, one strand shown
Matrix: in vitro
Concentration: 600 nM
Setting: 8-mer, flanks averaged, mean of replicates
Reading: higher = stronger binding
For `AACCTCTG`, the E-score was 0.0282.
With `AGCGCCAC` the E-score was -0.34.
`CGGGTCAC` gave an E-score of -0.376.
`GAAGTTCA` has an E-score of 0.154.
The E-score of `ATTTCCTG` is reported as 0.213.
With `ACACCGGT` the E-score was -0.26.
`CAATACCG` gave an E-score of -0.179.
`ATCTTTTG` has an E-score of 0.151.

Study 4
Target: CCNB1, cyclin fold, Cln2 fusion (human)
Method: yeast growth competition, sequencing
Matrix: yeast
Setting: strong parent motif
Relative to: not given
Reading: higher = stronger binding
Starting sequence: viral docking peptide; YKVKRRLVFGADD; partner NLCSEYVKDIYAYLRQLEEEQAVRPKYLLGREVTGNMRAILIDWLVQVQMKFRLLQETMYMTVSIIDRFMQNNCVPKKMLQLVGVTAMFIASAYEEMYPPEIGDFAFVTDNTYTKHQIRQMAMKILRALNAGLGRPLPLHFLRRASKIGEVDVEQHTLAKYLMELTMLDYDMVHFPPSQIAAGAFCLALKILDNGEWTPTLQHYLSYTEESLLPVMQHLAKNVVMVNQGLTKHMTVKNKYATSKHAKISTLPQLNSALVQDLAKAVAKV
`R5L` — result for “normalised enrichment score”: 0.743.
`V3E` — result for “normalised enrichment score”: 0.471.
Under “normalised enrichment score”, `R6N` is recorded as 0.514.
`K2Q` — result for “normalised enrichment score”: 4.78.
`L7K` — result for “normalised enrichment score”: 0.564.
Under “normalised enrichment score”, `F9G` is recorded as 0.44.
Under “normalised enrichment score”, `V3R` is recorded as 0.395.
Under “normalised enrichment score”, `K2W` is recorded as 2.26.
`V3L`: “normalised enrichment score” 1.47.
`V3K`: “normalised enrichment score” 0.385.
`K4F`: “normalised enrichment score” 1.24.
`F9E`: “normalised enrichment score” 0.485.
For `F9C`, “normalised enrichment score” read 0.456.
For `Y1A`, “normalised enrichment score” read 2.7.
`K2V`: “normalised enrichment score” 3.76.
Under “normalised enrichment score”, `D12I` is recorded as 1.84.
`G10T` — result for “normalised enrichment score”: 3.66.

Some of these lines once more (study 1):
Under “enrichment fold change”, `DGQFKPVYMIDYGV` is recorded as 7.82.
`DPRHHTHYPIHTMGY`: “enrichment fold change” 6.3.
`QFLPSYQIQVDLPHY`: “enrichment fold change” 7.06.
